Assay results from different studies.
Protocols differ between the studies behind these lines. ± marks the error that the study gave.
YWHAZ: 14-3-3 protein zeta/delta (YWHAZ, Homo sapiens, UniProt P63104)
Complement C3: Complement C3 (Homo sapiens, UniProt P01024)
Histone chaperone ASF1A: Histone chaperone ASF1A (Homo sapiens, UniProt Q9Y294)
lecA: PA-I galactophilic lectin (lecA, Pseudomonas aeruginosa, UniProt Q05097)

`CC[C@H](C)[C@H](NC(=O)[C@H](CCCNC(=N)N)NC(=O)[C@H](CCCCN)NC(=O)[C@@H](NC(=O)[C@H](C)NC(=O)[C@H](CCCNC(=N)N)NC(=O)[C@H](CCC(N)=O)NC(=O)[C@H](CO)NC(=O)[C@H](CCCCN)NC(=O)[C@H](CC(N)=O)NC(=O)[C@@H](N)CCCNC(=N)N)[C@@H](C)O)C(=O)N[C@@H](CO)C(=O)N[C@@H](Cc1c[nH]cn1)C(=O)N[C@@H](CCSC)C(=O)N1CCC[C@H]1C(=O)N[C@@H](CO)C(=O)N[C@@H](CCCNC(=N)N)C(=O)N1CCC[C@H]1C(=O)N[C@@H](CCC(=O)O)C(=O)N[C@@H](CC(C)C)C(=O)N[C@@H](CO)C(=O)N[C@@H](C)C(=O)N[C@H](C(=O)N[C@@H](C)C(=O)N[C@H](C(=O)N[C@@H](CC(=O)O)C(=O)N[C@@H](CC(C)C)C(=O)N[C@@H](CCCNC(=N)N)C(=O)N[C@@H](CCCCN)C(=O)N[C@@H](CC(=O)O)C(=O)N[C@@H](CCCCN)C(=O)N[C@@H](C)C(=O)N[C@@H](CCCCN)C(=O)N[C@@H](COP(=O)(O)O)C(=O)N[C@@H](CSC/C=C(\C)CC/C=C(\C)CCC=C(C)C)C(=O)OC)[C@@H](C)O)C(C)C` gave a kon of 3.92e+07 M⁻¹ s⁻¹ (YWHAZ; binding, stopped-flow fluorescence polarization).
For `CC[C@H](C)[C@H](NC(C)=O)C(=O)N[C@H]1CSSC[C@@H](C(=O)N[C@H](C(N)=O)[C@@H](C)O)NC(=O)[C@H](CCCNC(=N)N)NC(=O)[C@H](Cc2c[nH]cn2)NC(=O)[C@@H]2CCCN2C(=O)CNC(=O)[C@H](Cc2c[nH]c3ccccc23)NC(=O)[C@H](CC(=O)O)NC(=O)[C@H](CCC(N)=O)NC(=O)[C@H](Cc2cn(C)c3ccccc23)NC(=O)[C@H](C(C)C)NC1=O`, the -TΔΔS was -1.7 kcal/mol (Complement C3; isothermal titration calorimetry; relative to: 1-methyltryptophan reference).
For `CC[C@H](C)[C@H](NC(=O)[C@H](CCCNC(=N)N)NC(=O)NC[C@H](CCC(N)=O)NC(=O)NC[C@H](CC(C)C)NC(=O)NC[C@H](CCCNC(=N)N)NC(=O)NC[C@H](Cc1ccc2ccccc2c1)NC(=O)[C@H](CCCCN)NC(=O)[C@H](CCC(=O)O)NC(=O)[C@H](CCC(=O)O)NC(=O)[C@@H](NC(=O)[C@H](CO)NC(=O)[C@H](C)NC(C)=O)[C@@H](C)O)C(=O)N[C@@H](C)C(N)=O`, the binding enthalpy was -1.9 ± 0.4 kcal/mol (Histone chaperone ASF1A; isothermal titration calorimetry; concentration not given, pH 7.5, 20 °C).
Under ATP-evoked current, `O=C1C=CC(=O)N1c1ccccc1` is recorded as “no effect” (P2X purinoceptor 2 (P2rx2, Rattus norvegicus, UniProt P49653, V249C); covalent modifier, patch clamp; 0.5 mM, 2 min).
The Hill coefficient of `O=C1c2ccc(O)cc2OC(Oc2ccc(-c3coc4cc(O)ccc4c3=O)cc2)C1(O)c1ccc(O)cc1` (stereo not drawn) is reported as 2.04 (laccase (Trametes versicolor); substrate, Hill kinetic model; product formation).
For `O=C(COCCc1ccccc1)N[C@@H](Cc1cn(CCNC(=O)c2ccc(S[C@@H]3O[C@H](CO)[C@H](O)[C@H](O)[C@H]3O)cc2)nn1)C(=O)NCCO`, the binding stoichiometry was 1 ± 0.1 (lecA; isothermal titration calorimetry; concentration not given).
With `C=C1CCN2C(=O)COc3cccc(c3)C(CCc3ccc(OC)c(OC)c3)OC(=O)C3CCCCN3C(=O)C(=O)C(C)(C)COC(=O)C(C)(C)NC(=O)C2C1` (stereo not drawn) the Emax was 135% (FKBP1A/MAPRE1 (Homo sapiens, UniProt P62942+Q15691); FKBP12-MAPRE1 proximity, TR-FRET; relative to: DMSO).
`N=C(N)NCCC[C@H](NC(=O)[C@@H]1CCCN1C(=O)[C@H](CC(N)=O)NC(=O)[C@H](CCCNC(=N)N)NC(=O)[C@@H]1CCCN1C(=O)[C@H](CCCCN)NC(=O)[C@H](CCCCN)NC(=O)[C@H](CCC(N)=O)NC(=O)[C@H](CC(=O)O)NC(=O)[C@@H](N)Cc1c[nH]c2ccccc12)C(=O)O` gave a TΔS of -10 kcal/mol (Neuropilin-1 (NRP1, Homo sapiens, UniProt O14786); binding, ITC; pH 7.4, 30 °C).
With `C#Cc1ccc(O[C@@H]2O[C@H](CO)[C@H](O)[C@H](O)[C@H]2O)cc1` the binding stoichiometry was 0.94 ± 0.06 (lecA; isothermal titration calorimetry; concentration not given, 25 °C).
With `COc1ccc(CCCN[C@H]2CCC[C@@H]2CN[C@H]2CCC[C@@H]2CNCCCCN[C@H]2CCC[C@@H]2CN)cc1` the selectivity ratio was 1.8 (Lysine-specific histone demethylase 2 (KDM1B, Homo sapiens, UniProt Q8NB78); peroxidase-coupled; relative to: Ki for KDM1B over Ki for LSD1).
With `CC(C)C[C@H](NC(=O)[C@@H]1CCCN1C(=O)[C@H](Cc1c[nH]c2ccccc12)NC(=O)[C@H](COP(=O)(O)O)NC(=O)[C@H](CO)NC(=O)[C@H](CS)NC(=O)[C@H](CCCCN)NC(=O)[C@H](CO)NC(=O)CNC(=O)CNC(=O)[C@H](C)N)C(=O)N1CCC[C@H]1C(=O)N[C@@H](CCC(N)=O)C(=O)N1CCC[C@H]1C(=O)N[C@@H](CO)C(=O)O` the ΔG was -7.91 ± 0.0956 kcal/mol (YWHAZ; binding, ITC; pH 7.4, 37 °C, together with: phosphorylated PRLR peptide).
For `CC[C@H](C)[C@H](NC(=O)[C@@H]1CSSC[C@H](NC(=O)[C@@H](NC(C)=O)[C@@H](C)CC)C(=O)N[C@@H](C(C)C)C(=O)N[C@@H](Cc2cn(C)c3ccccc23)C(=O)N[C@@H](CCC(N)=O)C(=O)N[C@@H](CC(=O)O)C(=O)N[C@@H](Cc2c[nH]c3ccccc23)C(=O)N(C)CC(=O)N[C@@H](C)C(=O)N[C@@H](Cc2c[nH]cn2)C(=O)N[C@@H](CCCNC(=N)N)C(=O)N1)C(N)=O`, “−TΔS of binding” read 2.9 kcal/mol (Complement C3; ITC; PBS; concentration not given, pH 7.4, 25 °C).
Under binding, `O=C(NC1CCCCC1C(=O)O)c1cnn2c(O)cc(-c3ccccc3)nc12` (stereo not drawn) is recorded as “no binding” (Cyclic GMP-AMP synthase (CGAS, Homo sapiens, UniProt Q8N884); surface plasmon resonance; concentration not given, together with: ATP).
For `OC[C@H]1O[C@@H](Oc2ccc(-c3cn([C@@H]4O[C@H](CO)[C@@H](n5cc(CCCCc6cn([C@H]7[C@H](O)[C@@H](O)[C@H](n8cc(-c9ccc(O[C@@H]%10O[C@H](CO)[C@H](O)[C@H](O)[C@H]%10O)cc9)nn8)O[C@@H]7CO)nn6)nn5)[C@H](O)[C@H]4O)nn3)cc2)[C@H](O)[C@@H](O)[C@H]1O`, the ΔG was -9.6 ± 0.2 kcal/mol (lecA; isothermal titration calorimetry; 25 °C).
`C=C1C(=O)O[C@@H]2[C@H]3C(CO)=CC(=O)C3=C(C)C[C@H](OC(=O)Cc3ccc(O)cc3)[C@@H]12` — result for “binding free energy”: -5.2 kcal/mol (Alpha-glucosidase MAL12 (MAL12, Saccharomyces cerevisiae S288c, UniProt P53341); fluorescence quenching; 298 K).
Under binding, `CC(C)C[C@H](NC(=O)[C@@H]1CCCN1C(=O)[C@H](CC(=O)O)NC(=O)[C@H](CO)NC(=O)[C@H](C)NC(=O)c1cc(-c2ccccc2)nc2ccccc12)C(=O)NCC(=O)N[C@H](C(=O)N[C@H](C(=O)N[C@@H](CCCNC(=N)N)C(=O)NCC(=O)N[C@@H](CCCNC(=N)N)C(=O)N[C@@H](C)C(=O)N[C@@H](CCCNC(=N)N)C(=O)N[C@H](CCCNC(=O)CCOCCOCCOCCOCCNC(=O)CCCC[C@@H]1SC[C@@H]2NC(=O)N[C@@H]21)C(N)=O)C(C)C)C(C)C` is recorded as “no binding” (antibody 12CA5; biolayer interferometry; concentration not given, 7.8 to 1000 nM analyte).
`COC(=O)[C@H](C)NC(=O)[C@H](C)NC(=O)[C@H](CCCCNC(C)=S)NC(=O)c1ccc(C(=O)c2ccc(OC/C=C/Cn3cc(COCCOCCOc4cccc5c4C(=O)N(C4CCC(=O)NC4=O)C5=O)nn3)cc2)cc1` (stereo partly drawn) — result for protein level: “decreased” (NAD-dependent protein deacetylase sirtuin-2 (SIRT2, Homo sapiens, UniProt Q8IXJ6); protein degradation, degrader, western blot, item: SIRT2; HEK293; 25 µM, 12 h).
The -TΔΔS of `CC[C@H](C)[C@H](NC(C)=O)C(=O)N[C@H]1CSSC[C@@H](C(=O)N[C@H](C(N)=O)[C@@H](C)O)NC(=O)[C@H](CCCNC(=N)N)NC(=O)[C@H](Cc2c[nH]cn2)NC(=O)[C@H](C)NC(=O)CNC(=O)[C@H](Cc2c[nH]c3ccccc23)NC(=O)[C@H](CC(=O)O)NC(=O)[C@H](CCC(N)=O)NC(=O)[C@H](Cc2ccc3ccccc3c2)NC(=O)[C@H](C(C)C)NC1=O` is reported as -2.1 kcal/mol (Complement C3; isothermal titration calorimetry; relative to: 1-methyltryptophan reference).
With `Cc1ccc(-c2c(/C=C(\C#N)C(=O)NC(C)C)n(CCCO)c3ncnc(N)c23)cc1` the dissociation half-life was 4.08 h (Ribosomal protein S6 kinase alpha-3, C-terminal kinase domain (Rps6ka3, Mus musculus, UniProt P18654); kinetic trap, LC-MS; 10 µM, together with: 100 µM FMK trap).
For `CC[C@H](C)[C@H](NC(=O)[C@H](CCCNC(=N)N)NC(=O)NC[C@H](CCC(N)=O)NC(=O)NC[C@H](CC(C)C)NC(=O)NC[C@H](CCCNC(=N)N)NC(=O)NC[C@H](C)NC(=O)[C@H](CCCCN)NC(=O)[C@H](CCC(=O)O)NC(C)=O)C(=O)N[C@@H](C)C(N)=O`, the binding stoichiometry was 1.1 ± 0.2 (Histone chaperone ASF1A; isothermal titration calorimetry; concentration not given, pH 7.5, 20 °C).
`CNc1ccccc1C(=O)O[C@H]1C[C@H](n2cnc3c(N)ncnc32)O[C@@H]1COP(=O)(O)OP(=O)(O)O`: “ΔS of pocket step” -17.8 ± 11.2 cal/(mol·K) (Unconventional myosin-Va (Gallus gallus, UniProt Q02440, D297C/G292C/I296C/S293C/V295G); van't Hoff analysis; together with: 2 mM Mg2+).
`CC1=C(O)C(=O)C=C2C1=CC=C1[C@@]2(C)CC[C@@]2(C)[C@@H]3C[C@](C)(C(=O)NCCOCCOCCOCCOCC(=O)N[C@H](C(=O)N4C[C@H](O)C[C@H]4C(=O)N[C@@H](C)c4ccc(-c5scnc5C)cc4)C(C)(C)C)CC[C@]3(C)CC[C@]12C` — result for protein level: “decreased” (Nuclear receptor subfamily 4 group A member 1 (NR4A1, Homo sapiens, UniProt P22736); protein degradation, degrader, immunoblotting; WM164 melanoma cells; concentration not given, 16 h).
`CC(C)CC(=N)NCCC[C@H](N)C(=O)O` has a kinact of 0.347 min⁻¹ (Nitric oxide synthase, inducible (Nos2, Mus musculus, UniProt P29477); enzyme activity, inhibitor).
With `CN(C1COC1)C(C)(C)/C=C(\C#N)C(=O)N1CCC[C@H]1Cn1nc(-c2ccc(Oc3ccccc3)cc2F)c2c(N)ncnc21` the potency ratio was over 50 fold (Tyrosine-protein kinase BTK (BTK, Homo sapiens, UniProt Q06187, C481S); autophosphorylation; HEK293; relative to: C481S mutant over wild type).
